Results pooled from the literature.
Each numbered part is a random draw from the data of one study; scales do not carry over between parts. Changes are numbered by the printed parent chain.
Chain of UniProt Q94JM3 (whole entry, looked up): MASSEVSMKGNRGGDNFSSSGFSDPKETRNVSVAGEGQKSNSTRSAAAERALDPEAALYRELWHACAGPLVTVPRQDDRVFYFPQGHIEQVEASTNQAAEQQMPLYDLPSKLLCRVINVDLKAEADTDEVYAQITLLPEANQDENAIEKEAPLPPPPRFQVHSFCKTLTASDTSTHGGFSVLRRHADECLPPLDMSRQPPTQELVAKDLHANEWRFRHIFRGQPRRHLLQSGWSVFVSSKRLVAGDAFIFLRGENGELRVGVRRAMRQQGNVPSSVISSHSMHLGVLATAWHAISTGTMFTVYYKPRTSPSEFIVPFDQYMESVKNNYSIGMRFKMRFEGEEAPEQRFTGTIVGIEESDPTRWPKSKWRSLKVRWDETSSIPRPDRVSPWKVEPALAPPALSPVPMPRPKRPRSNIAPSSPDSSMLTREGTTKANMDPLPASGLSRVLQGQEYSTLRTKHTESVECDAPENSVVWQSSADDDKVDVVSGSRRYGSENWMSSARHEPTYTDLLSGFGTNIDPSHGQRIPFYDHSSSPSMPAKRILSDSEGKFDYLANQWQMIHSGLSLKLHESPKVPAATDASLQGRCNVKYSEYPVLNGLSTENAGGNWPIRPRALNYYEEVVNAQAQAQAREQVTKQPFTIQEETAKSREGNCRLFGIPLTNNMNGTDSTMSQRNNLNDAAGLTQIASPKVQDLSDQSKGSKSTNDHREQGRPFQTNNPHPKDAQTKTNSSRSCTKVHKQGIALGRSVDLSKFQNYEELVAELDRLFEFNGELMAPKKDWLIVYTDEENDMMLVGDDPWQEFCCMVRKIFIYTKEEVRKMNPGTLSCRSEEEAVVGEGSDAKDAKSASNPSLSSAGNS
Chain of UniProt Q8LAL2 (whole entry, looked up): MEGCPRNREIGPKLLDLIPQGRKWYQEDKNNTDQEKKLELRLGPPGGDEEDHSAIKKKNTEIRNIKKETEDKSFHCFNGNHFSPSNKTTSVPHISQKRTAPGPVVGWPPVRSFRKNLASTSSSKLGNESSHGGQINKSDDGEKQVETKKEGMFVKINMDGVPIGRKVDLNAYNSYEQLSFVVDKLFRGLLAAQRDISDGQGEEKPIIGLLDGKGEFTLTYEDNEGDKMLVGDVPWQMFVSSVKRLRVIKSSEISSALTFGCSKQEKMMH
Chain of UniProt Q84WU6 (whole entry, looked up): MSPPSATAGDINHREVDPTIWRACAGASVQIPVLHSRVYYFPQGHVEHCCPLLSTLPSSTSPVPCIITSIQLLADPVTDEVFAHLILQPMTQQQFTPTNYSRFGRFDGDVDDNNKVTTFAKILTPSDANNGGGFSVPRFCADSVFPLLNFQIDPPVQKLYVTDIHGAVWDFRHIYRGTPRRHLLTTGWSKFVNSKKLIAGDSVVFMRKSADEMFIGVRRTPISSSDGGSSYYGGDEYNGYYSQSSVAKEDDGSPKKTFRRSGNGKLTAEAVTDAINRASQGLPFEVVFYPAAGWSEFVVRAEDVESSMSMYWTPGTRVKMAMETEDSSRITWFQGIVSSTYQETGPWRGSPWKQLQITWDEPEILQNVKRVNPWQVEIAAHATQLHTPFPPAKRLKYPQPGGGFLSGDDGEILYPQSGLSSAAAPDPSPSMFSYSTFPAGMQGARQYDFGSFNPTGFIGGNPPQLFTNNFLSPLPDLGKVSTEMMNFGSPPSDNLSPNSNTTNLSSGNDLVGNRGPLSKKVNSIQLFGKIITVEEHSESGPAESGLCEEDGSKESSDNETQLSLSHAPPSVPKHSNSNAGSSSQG
Chain of UniProt P93024 (whole entry, looked up): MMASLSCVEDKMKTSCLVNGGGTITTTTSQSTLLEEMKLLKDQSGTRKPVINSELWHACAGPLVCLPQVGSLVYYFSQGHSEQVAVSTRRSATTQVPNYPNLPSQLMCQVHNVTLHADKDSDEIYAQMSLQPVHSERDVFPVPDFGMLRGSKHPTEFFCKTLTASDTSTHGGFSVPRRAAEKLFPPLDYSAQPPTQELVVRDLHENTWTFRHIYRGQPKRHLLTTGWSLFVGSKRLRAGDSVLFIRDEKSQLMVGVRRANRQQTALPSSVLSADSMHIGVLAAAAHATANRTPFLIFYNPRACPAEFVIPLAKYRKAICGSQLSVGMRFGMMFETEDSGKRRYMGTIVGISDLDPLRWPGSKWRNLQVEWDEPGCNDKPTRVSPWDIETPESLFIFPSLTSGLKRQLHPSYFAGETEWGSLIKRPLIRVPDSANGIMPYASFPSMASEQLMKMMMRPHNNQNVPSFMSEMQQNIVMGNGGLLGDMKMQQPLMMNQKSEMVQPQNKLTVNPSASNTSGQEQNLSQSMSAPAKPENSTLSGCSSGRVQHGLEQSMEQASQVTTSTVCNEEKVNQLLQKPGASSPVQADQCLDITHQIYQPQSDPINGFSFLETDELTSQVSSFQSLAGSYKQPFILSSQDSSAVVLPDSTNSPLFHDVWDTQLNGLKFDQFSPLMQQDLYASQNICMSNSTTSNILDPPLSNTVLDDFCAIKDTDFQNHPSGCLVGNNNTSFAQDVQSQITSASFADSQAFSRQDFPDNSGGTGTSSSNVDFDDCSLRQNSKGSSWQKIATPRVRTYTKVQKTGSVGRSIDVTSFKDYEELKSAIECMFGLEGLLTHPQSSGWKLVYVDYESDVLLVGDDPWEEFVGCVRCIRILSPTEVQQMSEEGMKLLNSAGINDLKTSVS
Chain of UniProt Q9XED8 (whole entry, looked up): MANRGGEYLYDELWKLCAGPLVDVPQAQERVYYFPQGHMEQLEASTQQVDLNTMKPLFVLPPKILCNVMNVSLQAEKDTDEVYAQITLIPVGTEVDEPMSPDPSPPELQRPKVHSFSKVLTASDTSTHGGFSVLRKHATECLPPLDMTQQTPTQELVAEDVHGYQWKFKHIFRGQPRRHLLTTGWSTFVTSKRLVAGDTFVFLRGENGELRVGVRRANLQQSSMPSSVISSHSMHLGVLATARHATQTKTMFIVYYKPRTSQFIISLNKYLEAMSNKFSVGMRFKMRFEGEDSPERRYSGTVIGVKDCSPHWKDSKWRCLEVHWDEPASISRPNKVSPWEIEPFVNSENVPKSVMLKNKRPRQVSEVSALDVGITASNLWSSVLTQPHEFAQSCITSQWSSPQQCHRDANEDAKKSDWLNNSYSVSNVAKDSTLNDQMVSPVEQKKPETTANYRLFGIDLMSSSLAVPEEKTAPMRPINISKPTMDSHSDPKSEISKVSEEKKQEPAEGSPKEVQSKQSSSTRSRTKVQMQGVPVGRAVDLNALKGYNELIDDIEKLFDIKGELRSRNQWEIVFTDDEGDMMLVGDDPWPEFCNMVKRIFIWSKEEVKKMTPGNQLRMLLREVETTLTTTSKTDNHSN

Set 1
Target: Ras GTPase-activating protein-binding protein 1, full length (G3BP1, Homo sapiens, UniProt Q13283)
Chain of UniProt Q13283 (whole entry, looked up): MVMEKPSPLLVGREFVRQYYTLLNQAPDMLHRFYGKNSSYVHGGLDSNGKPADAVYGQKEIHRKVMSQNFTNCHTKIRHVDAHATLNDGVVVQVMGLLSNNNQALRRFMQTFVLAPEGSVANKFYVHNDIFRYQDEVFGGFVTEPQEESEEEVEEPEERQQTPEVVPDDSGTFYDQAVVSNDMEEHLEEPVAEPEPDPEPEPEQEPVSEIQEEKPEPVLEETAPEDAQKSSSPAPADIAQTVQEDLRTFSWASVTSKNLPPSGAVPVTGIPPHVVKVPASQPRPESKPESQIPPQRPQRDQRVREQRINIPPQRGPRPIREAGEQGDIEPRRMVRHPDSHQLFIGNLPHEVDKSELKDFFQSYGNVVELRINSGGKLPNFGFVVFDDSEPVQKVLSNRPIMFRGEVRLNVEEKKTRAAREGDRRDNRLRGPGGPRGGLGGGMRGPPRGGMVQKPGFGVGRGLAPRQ
Technique: RNA Bind-n-Seq
Form: RNA
Matrix: in vitro
Tested at: 200 nM
Notes: whole 134-nt RNA, ends assumed
With: 150 mM LiCl
Relative to: input library
Direction: higher = stronger binding
All molecules: 7-deaza-guanosine replaces G
Shared flanks, not repeated: GGGAGUUCUACAGUCCGACGAUC … UGGAAUUCUCGGGUGUCAAGG
| Sequence | log2 enrichment |
| --- | --- |
| CUCAAGUCCUGUGCUACACAUCGUAUGUACCGAAUCGGGUGGGUUUGGGAGGGAAAGUAUUAUGUUACGCCGUUCGGAUCUGCACUUCCA | 0.173 |
| UGGGAGGUGGAUUUUGUUUAUUUUUUUAGCUCAUUUCCAGGGGUGGGAAUUUUUUUUUAAUAUGUGUCAUGAAUAAACUUGUUUUUGAAA | 0.0294 |
| AAGUCCUGUGCUACACAUCGUAUGUACCGAAUCGGUUUUUGGUUUGGUUUUUUUGGAAAGUAUUAUGUUACGCCGUUCGGAUCUGCACUU | -1.96 |
| CCUCAAGUCCUGUGCUACACAUCGUAUGUACCGAAUCGGGUGGGUGGUGGGGAAAGUAUUAUGUUACGCCGUUCGGAUCUGCACUUCCAG | -0.0787 |
| AAGUCCUGUGCUACACAUCGUAUGUACCGAAUCGGGUUUGGGAAAGGGAAAAAGGGAAAGUAUUAUGUUACGCCGUUCGGAUCUGCACUU | 0.292 |
| UCAAGUCCUGUGCUACACAUCGUAUGUACCGAAUCGGGGUUGGUUGGGGUUGGGAAAGUAUUAUGUUACGCCGUUCGGAUCUGCACUUCC | -0.588 |
| GUCCUGUGCUACACAUCGUAUGUACCGAAUCGGGCCCCCGGGCCCCCGGGGCCCCCGGAAAGUAUUAUGUUACGCCGUUCGGAUCUGCAC | -2.13 |
| CAAGUCCUGUGCUACACAUCGUAUGUACCGAAUCGGAAAAAAAGGUUUGGAAAGGAAAGUAUUAUGUUACGCCGUUCGGAUCUGCACUUC | -1.61 |
| UCAAGUCCUGUGCUACACAUCGUAUGUACCGAAUCGGUUUGGGGUUUGGGUUUGGAAAGUAUUAUGUUACGCCGUUCGGAUCUGCACUUC | -1.03 |
| UGGUGUUCAUAUUGCUGAUGUGAGCCAUUUUAUUAGGCCAGGAAAUGCCUUGGAUCAAGAAUCAGCCAGAAGAGGAACAACUGUGUAUCU | -1.37 |
| CAAGUCCUGUGCUACACAUCGUAUGUACCGAAUCAAACCCAAAUUUAAACCCAAAAAAGUAUUAUGUUACGCCGUUCGGAUCUGCACUUC | 1.61 |

Set 2
Target: Sal-like protein 4, full length isoform A (SALL4, Homo sapiens, UniProt Q9UJQ4, residues 1-1053)
Chain of UniProt Q9UJQ4 (whole entry, looked up): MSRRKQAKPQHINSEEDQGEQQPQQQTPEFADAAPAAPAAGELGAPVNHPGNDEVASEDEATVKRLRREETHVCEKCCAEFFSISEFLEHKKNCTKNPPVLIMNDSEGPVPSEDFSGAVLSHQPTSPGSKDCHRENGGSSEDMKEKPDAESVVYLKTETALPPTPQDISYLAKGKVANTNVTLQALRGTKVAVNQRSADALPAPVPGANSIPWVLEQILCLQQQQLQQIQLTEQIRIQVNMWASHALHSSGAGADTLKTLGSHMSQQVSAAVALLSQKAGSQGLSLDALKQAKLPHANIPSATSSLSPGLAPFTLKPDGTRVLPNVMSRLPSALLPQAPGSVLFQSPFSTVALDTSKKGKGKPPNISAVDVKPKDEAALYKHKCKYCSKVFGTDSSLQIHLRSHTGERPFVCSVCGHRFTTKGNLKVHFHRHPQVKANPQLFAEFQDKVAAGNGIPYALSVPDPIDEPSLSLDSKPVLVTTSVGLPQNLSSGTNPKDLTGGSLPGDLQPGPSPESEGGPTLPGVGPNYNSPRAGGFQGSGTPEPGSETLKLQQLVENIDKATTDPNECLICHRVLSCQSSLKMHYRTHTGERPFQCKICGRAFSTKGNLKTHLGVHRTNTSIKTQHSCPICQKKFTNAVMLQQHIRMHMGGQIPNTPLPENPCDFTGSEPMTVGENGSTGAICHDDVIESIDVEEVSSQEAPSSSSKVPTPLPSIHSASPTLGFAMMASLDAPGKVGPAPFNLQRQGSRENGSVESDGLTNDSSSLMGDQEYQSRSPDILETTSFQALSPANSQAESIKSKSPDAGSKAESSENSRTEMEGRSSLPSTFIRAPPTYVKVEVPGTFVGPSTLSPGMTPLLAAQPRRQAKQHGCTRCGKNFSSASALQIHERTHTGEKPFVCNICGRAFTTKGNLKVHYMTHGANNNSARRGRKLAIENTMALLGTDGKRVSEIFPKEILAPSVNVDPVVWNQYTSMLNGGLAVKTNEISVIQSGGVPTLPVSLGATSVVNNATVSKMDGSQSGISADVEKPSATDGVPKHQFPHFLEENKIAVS
Technique: universal PBM
Form: double-stranded DNA, one strand shown
Matrix: in vitro
Tested at: 600 nM
Notes: 8-mer, flanks averaged, mean of replicates
Direction: higher = stronger binding
| Sequence | E-score |
| --- | --- |
| GACTATGC | 0.0268 |
| CCAAAAAA | 0.305 |
| ACGACTGG | -0.179 |
| GTCCAAAA | 0.145 |
| ACTATAGT | 0.31 |
| ACGCTTGC | -0.127 |
| CGTAAATA | 0.294 |
| ACCCTAAT | 0.0722 |
| ACTCATTA | 0.297 |
| AGTGAGCG | -0.101 |
| CGGAGCTC | -0.257 |
| ACATGTCA | 0.0968 |
| AAATGCCA | 0.0645 |
| GTTTCTCA | -0.00732 |
| GCGCCTAA | -0.164 |
| AAATTCTA | 0.232 |
| ATGCACAT | 0.235 |
| AGTCAGTC | -0.177 |
| GCATACCC | -0.149 |
| ACCAATAT | 0.336 |
| CATACTGG | -0.0302 |
| TAGTGGCA | -0.0759 |
| CATTTGGG | -0.0242 |
| CTCGATCC | -0.171 |
| AGGAACGG | -0.102 |

Set 3
Target: MAFK, bZIP domain (human)
Technique: DHFR protein complementation
Matrix: yeast
Notes: single substitutions, most at no-binding floor
Relative to: wild-type JUN-FOS pair
Direction: higher = stronger binding
Starting sequence: JUN, bZIP domain (human); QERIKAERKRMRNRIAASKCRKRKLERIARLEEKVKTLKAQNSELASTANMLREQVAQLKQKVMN; partner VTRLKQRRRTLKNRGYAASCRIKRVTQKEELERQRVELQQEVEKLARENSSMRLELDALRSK
| Change | binding fitness |
| --- | --- |
| L31G | -1.49 natural log |
| A46D | -1.45 natural log |
| T48Q | -1.51 natural log |
| Q41F | -1.48 natural log |
| E33S | -1.54 natural log |
| A49R | -1.4 natural log |
| V56N | -1.27 natural log |
| E33L | -1.42 natural log |
| A46I | -1.49 natural log |
| S43A | -1.36 natural log |
| A29N | -1.37 natural log |
| T48V | -1.47 natural log |
| Q55N | -1.49 natural log |
| Q55V | -1.51 natural log |
| A49W | -1.44 natural log |
| L59A | -1.42 natural log |
| T48R | -1.45 natural log |

Set 4
Sequence: B1 (IAA14)
Technique: two-hybrid
Relative to: out of 4 tests
Direction: higher = firmer interaction
B1: IAA14 (Arabidopsis thaliana, UniProt Q38832); chain MNLKETELCLGLPGGTETVESPAKSGVGNKRGFSETVDLKLNLQSNKQGHVDLNTNGAPKEKTFLKDPSKPPAKAQVVGWPPVRNYRKNVMANQKSGEAEEAMSSGGGTVAFVKVSMDGAPYLRKVDLKMYTSYKDLSDALAKMFSSFTMGSYGAQGMIDFMNESKVMDLLNSSEYVPSYEDKDGDWMLVGDVPWPMFVESCKRLRIMKGSEAIGLAPRAMEKFKNRS
| partner | notes | positive tests |
| --- | --- | --- |
| ARF5 788-902 (Arabidopsis thaliana, UniProt P93024) | – | 2 |
| ARF12 500-593 (Arabidopsis thaliana, UniProt Q9XID4) | – | 0 |
| ARF9 519-638 (Arabidopsis thaliana, UniProt Q9XED8) | weak activation fusion | 1 |
| IAA26 (Arabidopsis thaliana, UniProt Q8LAL2) | – | 2 |
| ARF2 727-859 (Arabidopsis thaliana, UniProt Q94JM3) | – | 0 |
| ARF17 (Arabidopsis thaliana, UniProt Q84WU6) | weak activation fusion | 0 |
| ARF14 497-605 (Arabidopsis thaliana, UniProt Q9LQE8) | – | 0 |

Set 5
Target: ABI1, truncated, D143A, DHFR fusion (Arabidopsis thaliana)
Technique: DHFR PCA, deep sequencing
Matrix: yeast
Notes: methotrexate growth selection, single substitutions
With: (+)-ABA 0.0091 µM
Relative to: wild-type fitted maximum
Direction: higher = stronger binding
Starting sequence: PYL1, truncated, DHFR fusion (Arabidopsis thaliana); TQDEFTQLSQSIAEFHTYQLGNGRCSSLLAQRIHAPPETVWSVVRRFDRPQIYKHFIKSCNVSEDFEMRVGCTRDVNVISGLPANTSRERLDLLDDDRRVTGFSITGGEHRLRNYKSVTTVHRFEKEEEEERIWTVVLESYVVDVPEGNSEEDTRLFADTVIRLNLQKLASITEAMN; partner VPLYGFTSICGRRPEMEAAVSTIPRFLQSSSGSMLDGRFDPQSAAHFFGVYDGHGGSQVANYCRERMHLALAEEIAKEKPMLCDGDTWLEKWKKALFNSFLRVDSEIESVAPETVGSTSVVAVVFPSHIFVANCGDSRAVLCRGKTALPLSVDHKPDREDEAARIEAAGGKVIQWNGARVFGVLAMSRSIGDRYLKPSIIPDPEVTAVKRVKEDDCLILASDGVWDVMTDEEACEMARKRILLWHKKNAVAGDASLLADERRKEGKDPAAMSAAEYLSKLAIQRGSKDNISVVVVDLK
| Change | relative binding score [%] |
| --- | --- |
| D95T | -1.34 |
| V161F | 15.7 |
| Q167I | -3.01 |
| Q31G | -1.26 |
| P146Q | 24.4 |
| E128W | 10.1 |
| E38K | -0.0615 |
| R123G | 85.9 |
| E64G | 13.9 |
| S150K | 13.2 |
| D95Q | 0.0313 |
| W41N | -1.99 |
| G71W | 0.948 |
| C25N | -3.99 |
| V62I | 17.3 |
| D95C | -5.71 |
| L93M | 18.1 |
| V121Q | -3.31 |

Set 6
Target: CCND3, cyclin fold, Cln2 fusion (human)
Technique: yeast growth competition, sequencing
Matrix: yeast
Notes: weak parent motif
Relative to: not given
Direction: higher = stronger binding
Starting sequence: GMNC docking peptide (human); KNAKRNLSSEFAN; partner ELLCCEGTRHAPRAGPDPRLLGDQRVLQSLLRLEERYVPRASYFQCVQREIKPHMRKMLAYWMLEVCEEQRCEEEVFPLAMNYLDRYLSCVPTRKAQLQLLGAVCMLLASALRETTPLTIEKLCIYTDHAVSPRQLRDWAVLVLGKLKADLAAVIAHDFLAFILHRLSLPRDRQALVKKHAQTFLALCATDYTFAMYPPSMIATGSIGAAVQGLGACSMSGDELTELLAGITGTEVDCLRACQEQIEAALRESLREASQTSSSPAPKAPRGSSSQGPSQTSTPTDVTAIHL
| Change | normalised enrichment score |
| --- | --- |
| S8K | 0.127 |
| N2K | 0.648 |
| R5A | 0.183 |
| E10F | -0.283 |
| N6K | -0.0947 |
| S8T | -0.252 |
| S9T | 0.346 |
| E10Y | -0.449 |
| S9G | 0.391 |
| L7D | 0.922 |
| L7F | 0.132 |
| E10A | -0.297 |
| R5L | 0.0215 |
| A3W | 0.577 |
| N2P | 0.393 |
| A12Q | -0.119 |
| A3L | -0.0487 |
| R5C | 0.135 |
| N6M | -0.295 |
| S8Y | -0.00412 |
| L7M | 0.0446 |
| F11P | -0.316 |
| N2H | 0.223 |
| A3C | 0.0284 |
| N2W | 0.575 |

For quick reference, copied from above (set 2):
| Sequence | E-score |
| --- | --- |
| AAATTCTA | 0.232 |
| ATGCACAT | 0.235 |
| ACGACTGG | -0.179 |
| AGTCAGTC | -0.177 |
| ACCAATAT | 0.336 |
| GTTTCTCA | -0.00732 |
| CTCGATCC | -0.171 |
| GACTATGC | 0.0268 |
| AGGAACGG | -0.102 |
| ACTATAGT | 0.31 |
| CGGAGCTC | -0.257 |
| ACTCATTA | 0.297 |
| GCGCCTAA | -0.164 |
| AGTGAGCG | -0.101 |
| CATTTGGG | -0.0242 |
| GTCCAAAA | 0.145 |
| TAGTGGCA | -0.0759 |
